# Results from different studies.
# Lines come from different studies, so protocols differ. ± gives the spread as reported.
# Chain of UniProt P07332 (whole entry, looked up): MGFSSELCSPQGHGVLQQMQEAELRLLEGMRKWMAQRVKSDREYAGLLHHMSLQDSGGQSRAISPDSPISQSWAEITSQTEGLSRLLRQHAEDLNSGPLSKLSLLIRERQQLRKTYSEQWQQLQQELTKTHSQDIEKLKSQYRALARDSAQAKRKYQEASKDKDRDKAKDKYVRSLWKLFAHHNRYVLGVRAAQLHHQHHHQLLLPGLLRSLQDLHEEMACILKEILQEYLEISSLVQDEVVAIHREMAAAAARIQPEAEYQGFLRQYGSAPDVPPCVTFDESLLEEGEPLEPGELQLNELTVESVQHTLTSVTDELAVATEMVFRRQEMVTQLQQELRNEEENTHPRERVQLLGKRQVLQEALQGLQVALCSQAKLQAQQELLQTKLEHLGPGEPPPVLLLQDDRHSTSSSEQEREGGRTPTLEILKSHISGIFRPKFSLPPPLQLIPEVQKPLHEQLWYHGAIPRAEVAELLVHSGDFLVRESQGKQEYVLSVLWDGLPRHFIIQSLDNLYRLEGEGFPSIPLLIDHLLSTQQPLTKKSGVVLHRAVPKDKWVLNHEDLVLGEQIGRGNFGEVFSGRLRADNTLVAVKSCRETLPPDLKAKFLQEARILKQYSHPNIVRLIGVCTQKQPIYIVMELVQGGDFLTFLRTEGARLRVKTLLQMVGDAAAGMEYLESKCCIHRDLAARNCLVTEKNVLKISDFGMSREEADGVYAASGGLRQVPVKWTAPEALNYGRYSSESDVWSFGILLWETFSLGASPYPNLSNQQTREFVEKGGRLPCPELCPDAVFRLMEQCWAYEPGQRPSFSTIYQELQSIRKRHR
SMILES,target or system,assay,test system,conditions,how to read,quantity,value
CN1CCC[C@]1(C)/C=C/S(=O)(=O)NC(=O)Nc1c2c(cc3c1CCC3)CCC2,,,"human, whole blood ex vivo","50 mg twice daily, day 14, 24 h, multiple ascending dose, with: LPS and ATP",,IL-1β inhibition,98.8%
COC1OC(C)C(O)C(OC2OC(C)C(O)C(OC3OC(C)C(O)C(OC4OC(C)C(O)C(OC5OC(C)C(O)C(OC6OC(C)C(O)C(OC7OC(C)C(O)C(OS(=O)(=O)O)C7OS(=O)(=O)O)C6OS(=O)(=O)O)C5OS(=O)(=O)O)C4OS(=O)(=O)O)C3OS(=O)(=O)O)C2OS(=O)(=O)O)C1OS(=O)(=O)O (stereo not drawn),,,human plasma,128 µg/mL,,activated partial thromboplastin time,39.1 ± 0.7 s
Nc1ncc(-c2cc(-c3cnn(CC(F)(F)F)c3)ncc2F)nc1C(=O)NC1CNCC(F)C1 (stereo not drawn),MEK3,KINOMEscan,,1 µM,relative to: DMSO control,remaining binding,86%
COc1c(Cl)cccc1Nc1c(-c2ccncc2C#C[C@@]2(C)CCCN2C(=O)/C=C/CN(C)C)[nH]c2c1C(=O)NCC2,,,"male NSG mouse, PDX","100 mg/kg once daily, 42 days, EGFR SVD",,tumour growth inhibition,139%
Cc1ncsc1-c1ccc(C(C)NC(=O)C2CC(O)CN2C(=O)C(NC(=O)CCCCCCCCCCN2CCCC(Nc3ncc(Cl)c(Nc4ccccc4S(=O)(=O)C(C)C)n3)C2)C(C)(C)C)cc1 (stereo not drawn),22Rv1,"RNA-seq, refers to: PPARA mRNA",,concentration not given,relative to: DMSO,log2 fold change,-1.5
COC1CN([C@H]2CC[C@H]([C@@]3(C)Oc4c(Cl)cc(C(=O)NCc5c(SC)cc(C)[nH]c5=O)c(C)c4O3)CC2)C1,,"RNA-seq, refers to: DAAM2 mouse homolog","mouse, HT-1376 xenograft, whole blood",dose not given,relative to: vehicle,log2 fold change,0.144
COc1cc(O)ccc1CCC(c1ccc(O)cc1)c1cc2c(c(C)c1O)OC(c1ccc(O)cc1)CC2 (mixture of isomers),,,human blood,"30 µM, with: A23187",,TXB2 level,894 ± 330 pg/mL
Cc1nn(-c2cccc(N)c2)c(=O)c2cnc(Nc3ccc(N4CCNCC4)cc3)nc12,"Tyrosine-protein kinase Fes/Fps (FES, Homo sapiens, UniProt P07332)","enzyme activity, inhibitor",,,,IC50,1.76 µM
Nc1nc2cc(CC[C@H]3C[C@@H](n4ccc5c(N)ncnc54)[C@H](O)[C@@H]3O)ccc2cc1Br,,,"A-427 xenograft, mouse","1.0 mg/kg/day, day 34",,tumour volume,329 ± 77 mm3
Cc1ccc(N(O)/N=N/c2ccc(S(=O)(=O)Nc3nccs3)cc2)cc1,,ABTS scavenging,,240 µg/mL,,inhibition,99.8%
COC1OC(C)C(OC2OC(C)C(OS(=O)(=O)O)C(OC3OC(C)C(OC4OC(C)C(OS(=O)(=O)O)C(OC5OC(C)C(OC6OC(C)C(OS(=O)(=O)O)C(OC7OC(C)C(OC8OC(C)C(OS(=O)(=O)O)C(OC9OC(C)C(OC%10OC(C)C(OS(=O)(=O)O)C(OC%11OC(C)C(OS(=O)(=O)O)C(OS(=O)(=O)O)C%11O)C%10O)C(OS(=O)(=O)O)C9O)C8O)C(OS(=O)(=O)O)C7O)C6O)C(OS(=O)(=O)O)C5O)C4O)C(OS(=O)(=O)O)C3O)C2O)C(OS(=O)(=O)O)C1O (stereo not drawn),,,human plasma,128 µg/mL,,activated partial thromboplastin time,44.6 ± 0.3 s
CNS(=O)(=O)Nc1nccc(Cc2c(C)c3ccc(Oc4ncccc4F)cc3oc2=O)c1F,KMBC-2,"cell viability, CellTiter-Glo",,7 days,,IC50,> 1 µM
COC1OC(C)C(OS(=O)(=O)O)C(OC2OC(C)C(OS(=O)(=O)O)C(OC3OC(C)C(OS(=O)(=O)O)C(OC4OC(C)C(OS(=O)(=O)O)C(OC5OC(C)C(OS(=O)(=O)O)C(OS(=O)(=O)O)C5O)C4O)C3O)C2O)C1O (stereo not drawn),,,human plasma,128 µg/mL,,activated partial thromboplastin time,41.8 ± 0.4 s
COCC1CN(C2CCN(c3cc(OC)c(Nc4ncc(Br)c(Nc5ccc6c(c5P(C)(C)=O)OCCO6)n4)cc3C)CC2)C1,,RECIST 1.1,advanced EGFR-mutant NSCLC patients,10 mg once daily,,not evaluable patients,33.3%
C=CC(=O)Nc1cccc(Cn2ncc3cnc(Nc4cnn(CCOC)c4)nc32)c1,CSK human,"binding, KINOMEscan",,100 nM,lower = stronger binding,percent of control,100%
